# Published values pooled from the literature.
# Numbered parts are unrelated; each lists some results of a single study.

# Study 1
# Target: RNA binding protein fox-1 homolog 2, RRM domain, GST-SBP tag (RBFOX2, Homo sapiens, UniProt O43251-10, residues 100-194)
# Technique: RNA Bind-n-Seq
# Form: RNA
# Sample: in vitro
# Concentration: 365 nM
# Notes: natural RNA segment, single round, ends assumed
# Relative to: no-protein control
# Reading: higher = stronger binding
# Shared flanks, not repeated: GGGAGUUCUACAGUCCGACGAUC … UGGAAUUCUCGGGUGCCAA
# Target sequence (chain): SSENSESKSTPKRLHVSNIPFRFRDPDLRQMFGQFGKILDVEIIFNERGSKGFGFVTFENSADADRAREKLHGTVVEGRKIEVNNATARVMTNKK
Oligonucleotide,RBNS enrichment (R)
GGUUCAGAGUUAGCAGCUGUUUCUAAGGAAAUGCUGUUCAGAUGCCUCCUAACUUUUAUAGUUAUUUUGUUUUAUAUUUCUGAAUUCUUGUAUCAGAUCCAAAGCUCUAU,0.455
UCUCUGUGGCAGUUUCAUAUUUGCUAAGACGAAUUUGCUCAUUAAACAUUUUGUUGUAUUUUACUUUAUGGAGCGGCUGUGUGUCCAGUAUGUCCGACCCUCUUCCUCGG,0.483
UUCUCCAUAAUUUGGUCUCCUCUUGGGUUUGGGGAUAGUUCUAAUUUGGAGAGCUGUUUUAUCUCCAAUGGCUGUGACUCAGUGCAAGGAUUCCACUCAGAACCUCUUUC,0.548
GGGUUGGAAGAAAUAUAACUGUAGGACCCAGGUGAGAAAAUGUCUUUCUCUCUAGCAGGCUUGGAGGGAAGGCCUUCUGGUCUACCUGGGAUUUUACAGAGUUUUUGAGA,0.482
CUAUUGUAAAAAUUGCUCUUAAUUCUUGAAGAGGCUACUGAGAAGCAGUGGGGUAGAUCUCAUGAGGUUACCUACAGCUACUUCAUGUUCUUACACUGUAAGCCUUGUUG,0.323
AAUAGAAAUAAAAAGAUCUUCAGCCAGGCCUUUCUGAAGGAGUUAUUCUGCUAAAAAUGGUCUUAGUUGUCUGAAAAGCCAGCUCUUGAACCUCUUCACAACAGUAUCAA,0.306
UGAAUGGAACUCAUUAGCUGUGUGCAUAUAAAAAGAUCACAUCAGGUGGAUGGAGAGACAUUUGAUCCCUUGUUUGCUUAAUAAAUUAUAAAAUGAUGGCUUGGAAAAGC,0.636
GUCAAGGAUUUGUUGGUAAAUGGAACAUUUUAGCAUAGUCAUGAUUUUUGGUUGCCUAGACAUCAGGUAAACAUUCAGUACACUAAAGAAACUAUCCUGGACACUCCCUC,0.287

# Study 2
# Target: RING finger protein unkempt homolog, zinc fingers 1-6, GST-SBP tag (UNK, Homo sapiens, UniProt Q9C0B0, residues 30-357)
# Technique: RNA Bind-n-Seq
# Form: RNA
# Sample: in vitro
# Concentration: not given
# Notes: RNA with constant flanks, ends assumed
# Relative to: input RNA pool
# Reading: higher = stronger binding
# Shared flanks, not repeated: GGGAGUUCUACAGUCCGACGAUC … CAACAGAGGAUUGAGCAUCA
# Residues (chain): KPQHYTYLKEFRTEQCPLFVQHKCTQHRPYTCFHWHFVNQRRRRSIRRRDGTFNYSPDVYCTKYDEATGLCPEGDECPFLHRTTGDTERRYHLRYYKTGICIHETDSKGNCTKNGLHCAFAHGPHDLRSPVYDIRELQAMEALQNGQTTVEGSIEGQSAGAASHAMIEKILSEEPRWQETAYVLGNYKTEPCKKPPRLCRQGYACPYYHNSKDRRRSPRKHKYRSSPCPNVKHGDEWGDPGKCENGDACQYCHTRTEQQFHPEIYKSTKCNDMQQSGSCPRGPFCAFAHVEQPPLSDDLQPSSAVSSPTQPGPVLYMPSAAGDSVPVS
Oligonucleotide,bound/input enrichment [ratio]
UACACAGUAUUGUUCUUGUAAAACUGUGACAUUCCACAGAGCUACUGCCACAAUCCUUUCUCCGGGUGUCAGGCUCUGAAUCUCUCCAAAUGUGCUGUCUUUGGUUCCUCAUGGCUAUUC,0.208
AAAUCACGAAACAAUGAAUCAGAAAAGCCCAGUUCUAAUUCAGAAGUGAGUUUACAAGCCGAUUUGAAAAGCAUUUUGGAGAAACAGUUUUCAAAAUCUUCCAGAGCUGCACACCAGGAU,0.227
UCACUUCAAGGGUACCUGAAGCGAAUUGGCACCAAAGCAGCAGCUGUAUUGCCGCAGUUCCCGCUUCACCUUCACGAUGUUUCCCUUGGUCAAAAGCGCACUAAAUCGUCUCCAAGUUCG,0.0937
AUUAAUAGGUAUAAGGAUUUUUCUUAUUAAUCUAAUAAAAUUCCUUAAUAGGAAUUUCCACCGCUUAAGAGUGGUUUAUUUUAUCUGCAUCUUCUUUGGUGAUUGCAAAUCCCUUGUGAU,1.09
CAUGGGUUUUAAGUGCUUGUGGCUCACUGAAGCUUAAGUGAGGAUUUCCUUGCAAUGAGCCGAAUUUCCCUUCUCUCCCUUGUCACAGGUUUAAAAACCUCACAGCUUGUAUAAUGUAAC,0.188
GAUGUAGAAAUAAUCUUUAAUGAACGUGGCUCUAAGGGAUUCGGGUUCGUAACUUUCGAGAACCGUGCUGAUGCAGACAGGGCCAGGGAGAAAUUACACGGCACCGUGGUAGAGGGCCGU,0.378
AAGGCAUCUUGUACGUCGUUACAUUUAUCAUAUUGGAAGUCCCUUAAGCUCCUAGGAUUUUCCGAUGUUGAAAAUACUCCCUGCGCCCGGCAUUCAAUAUUGUAUGGUUCAUUAGGAUCU,0.364
UGCCUGCCUUCAAUCCUGGCCAAGUUGGAGUAGACUGGUAUGAGAAAACUAUGAUCCGUUCACAUUUACUGGUGCAUCCUUGAUCCUCUCACAGAUAGAGGUCUUAAAGGUUGGAUCAUG,0.194

# Study 3
# Target: Interferon regulatory factor 7, full length, phosphomimetic (IRF7, Homo sapiens, UniProt Q92985, residues 1-503, S471D/S472D/S475D/S476D/S477D/S483D/S484D/S487D)
# Technique: protein-binding microarray
# Form: double-stranded DNA, one strand shown
# Sample: in vitro
# Concentration: 2200 nM top
# Notes: 60-bp whole probe
# With: salmon DNA 0.4 mg/ml
# Relative to: random background probes
# Reading: higher = stronger binding
# Shared flanks, not repeated: GCCTAGCAC … GTCTTGATTCGCTTGACGCTGCTG
# Target sequence (chain): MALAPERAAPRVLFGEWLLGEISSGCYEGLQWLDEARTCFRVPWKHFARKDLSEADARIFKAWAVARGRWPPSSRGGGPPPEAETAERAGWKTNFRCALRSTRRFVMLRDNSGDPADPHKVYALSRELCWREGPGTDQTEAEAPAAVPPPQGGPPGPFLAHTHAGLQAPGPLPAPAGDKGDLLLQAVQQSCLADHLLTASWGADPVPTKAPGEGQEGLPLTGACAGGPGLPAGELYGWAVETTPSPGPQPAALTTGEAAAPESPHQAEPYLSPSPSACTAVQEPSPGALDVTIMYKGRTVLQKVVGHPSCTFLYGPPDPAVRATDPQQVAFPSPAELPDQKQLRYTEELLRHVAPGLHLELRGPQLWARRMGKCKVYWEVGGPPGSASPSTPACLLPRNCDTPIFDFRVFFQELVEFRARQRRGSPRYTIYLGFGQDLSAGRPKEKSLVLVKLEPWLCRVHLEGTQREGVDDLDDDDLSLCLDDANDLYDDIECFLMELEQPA
Oligonucleotide,fitted relative affinity [z-score]
GACGGTTTTCTTTCCCTGACGTGCTAG,3
GACGGTTTCCTACTGCGGACGTGCTAG,2.02
GACGGGATCGACACTGGGGACGTGCTA,-0.576
TCGGTTTCCAAATTGTCTCTGTGCTAG,6.81
TCATACATCTCTCTTAAACTGTGCTAG,0.865
CCACACACCATTCTCGGGACGTGCTAG,1.24
TCAGATATAGGATAACGAGCCGTGCTA,-0.527
GACGGACCGCTTCTCCTGACGTGCTAG,0.275
TTATATTCCAGTTTCGATTAGTGCTAG,7.03
GAAGGTATCGGGTATCGGGACGTGCTA,-0.154
TAAGGTATCCTTCTCCTTTAGTGCTAG,1.13
TGAGATCTCAGTCTCGATTAGTGCTAG,0.392
TGTAGTGTGTGTCTGATTATGTGCTAG,0.581
TCAAAGTTCTTTTTTTCACTGTGCTAG,0.679
TTAGAACTGAGTCTCGGTTAGTGCTAG,0.0504
GACGGTTTCGGACTGGGGATGTGCTAG,3.6
GACGATTTCACTTTCGAGACGTGCTAG,8.07
TTAGGTTACGGTTCCGGTTAGTGCTAG,1.94
TCAATTTTGTGTTTTCAACTGTGCTAG,1.73

# Study 4
# Target: Histone acetyltransferase KAT6A, both winged helices, GST fusion (KAT6A, Homo sapiens, UniProt Q92794, residues 1-181)
# Technique: protein binding microarray
# Form: double-stranded DNA, one strand shown
# Sample: in vitro
# Concentration: not given
# Notes: 8-mer, flanks averaged, mean of 2 arrays, mostly near background
# Relative to: not given
# Reading: higher = stronger binding
# Construct (chain): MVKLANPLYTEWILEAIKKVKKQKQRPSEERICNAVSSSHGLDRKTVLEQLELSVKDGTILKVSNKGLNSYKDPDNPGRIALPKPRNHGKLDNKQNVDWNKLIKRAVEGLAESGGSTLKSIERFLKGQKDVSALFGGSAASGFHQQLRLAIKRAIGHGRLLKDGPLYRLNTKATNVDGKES
Oligonucleotide,E-score
CATCACCG,0.115
GAGTTCAC,-0.109
AAGCTCCT,-0.149
GCCGATGA,0.181
AAACCTTG,-0.203
AATACCAC,-0.179
AAGACATA,-0.00421
CCTGACAG,-0.0839
CAACAGTA,-0.153
GGTCTTAC,0.123
GTGTCGAA,-0.0799
AGAATTGG,-0.182
GCACTAAC,0.0411
AGCCGACC,0.195
GATCATTA,-0.0128
GCAGAGCA,-0.0788
GTCAAGGA,-0.0379
AACTTCTT,-0.202
GTCAGAGA,-0.122
AAAGCTAT,-0.0136
GACAGAGA,-0.0536
CCACCCAG,-0.209
GGATCTTA,-0.0377
CGGGTTCA,0.307
GACACCCC,-0.0652

# For quick reference, copied from above (study 1):
Oligonucleotide,RBNS enrichment (R)
UCUCUGUGGCAGUUUCAUAUUUGCUAAGACGAAUUUGCUCAUUAAACAUUUUGUUGUAUUUUACUUUAUGGAGCGGCUGUGUGUCCAGUAUGUCCGACCCUCUUCCUCGG,0.483
UUCUCCAUAAUUUGGUCUCCUCUUGGGUUUGGGGAUAGUUCUAAUUUGGAGAGCUGUUUUAUCUCCAAUGGCUGUGACUCAGUGCAAGGAUUCCACUCAGAACCUCUUUC,0.548
GGGUUGGAAGAAAUAUAACUGUAGGACCCAGGUGAGAAAAUGUCUUUCUCUCUAGCAGGCUUGGAGGGAAGGCCUUCUGGUCUACCUGGGAUUUUACAGAGUUUUUGAGA,0.482
CUAUUGUAAAAAUUGCUCUUAAUUCUUGAAGAGGCUACUGAGAAGCAGUGGGGUAGAUCUCAUGAGGUUACCUACAGCUACUUCAUGUUCUUACACUGUAAGCCUUGUUG,0.323
